Measurements pooled from the literature.
Parts stem from different laboratories: compare values within a part only.
UniProt P37023, sequence (whole entry, looked up): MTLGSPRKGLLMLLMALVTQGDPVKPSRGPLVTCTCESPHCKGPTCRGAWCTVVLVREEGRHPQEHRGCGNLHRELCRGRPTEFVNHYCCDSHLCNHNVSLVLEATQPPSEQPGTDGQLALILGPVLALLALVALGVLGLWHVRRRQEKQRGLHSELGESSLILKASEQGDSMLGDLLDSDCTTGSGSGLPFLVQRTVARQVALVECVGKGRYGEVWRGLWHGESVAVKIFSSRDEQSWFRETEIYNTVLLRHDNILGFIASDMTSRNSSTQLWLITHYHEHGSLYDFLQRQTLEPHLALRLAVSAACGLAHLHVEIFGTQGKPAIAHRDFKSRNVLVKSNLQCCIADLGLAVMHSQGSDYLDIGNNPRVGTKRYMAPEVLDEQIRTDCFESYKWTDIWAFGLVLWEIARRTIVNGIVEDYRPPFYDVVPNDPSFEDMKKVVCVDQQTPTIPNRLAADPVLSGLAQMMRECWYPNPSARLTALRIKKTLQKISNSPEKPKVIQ
UniProt O00238, sequence (whole entry, looked up): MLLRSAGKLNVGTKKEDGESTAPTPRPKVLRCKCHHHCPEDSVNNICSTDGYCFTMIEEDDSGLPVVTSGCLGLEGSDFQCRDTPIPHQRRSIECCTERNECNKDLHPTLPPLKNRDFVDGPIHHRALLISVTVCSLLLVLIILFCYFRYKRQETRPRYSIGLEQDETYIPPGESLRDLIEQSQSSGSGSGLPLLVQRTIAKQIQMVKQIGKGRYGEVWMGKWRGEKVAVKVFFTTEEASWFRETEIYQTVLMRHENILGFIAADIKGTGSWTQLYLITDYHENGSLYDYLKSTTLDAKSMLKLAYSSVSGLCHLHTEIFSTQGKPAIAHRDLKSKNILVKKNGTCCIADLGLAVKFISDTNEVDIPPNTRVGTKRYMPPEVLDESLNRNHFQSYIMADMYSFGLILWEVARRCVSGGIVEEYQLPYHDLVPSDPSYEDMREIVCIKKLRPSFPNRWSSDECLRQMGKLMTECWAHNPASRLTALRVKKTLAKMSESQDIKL
UniProt Q5VT25, sequence (whole entry, looked up): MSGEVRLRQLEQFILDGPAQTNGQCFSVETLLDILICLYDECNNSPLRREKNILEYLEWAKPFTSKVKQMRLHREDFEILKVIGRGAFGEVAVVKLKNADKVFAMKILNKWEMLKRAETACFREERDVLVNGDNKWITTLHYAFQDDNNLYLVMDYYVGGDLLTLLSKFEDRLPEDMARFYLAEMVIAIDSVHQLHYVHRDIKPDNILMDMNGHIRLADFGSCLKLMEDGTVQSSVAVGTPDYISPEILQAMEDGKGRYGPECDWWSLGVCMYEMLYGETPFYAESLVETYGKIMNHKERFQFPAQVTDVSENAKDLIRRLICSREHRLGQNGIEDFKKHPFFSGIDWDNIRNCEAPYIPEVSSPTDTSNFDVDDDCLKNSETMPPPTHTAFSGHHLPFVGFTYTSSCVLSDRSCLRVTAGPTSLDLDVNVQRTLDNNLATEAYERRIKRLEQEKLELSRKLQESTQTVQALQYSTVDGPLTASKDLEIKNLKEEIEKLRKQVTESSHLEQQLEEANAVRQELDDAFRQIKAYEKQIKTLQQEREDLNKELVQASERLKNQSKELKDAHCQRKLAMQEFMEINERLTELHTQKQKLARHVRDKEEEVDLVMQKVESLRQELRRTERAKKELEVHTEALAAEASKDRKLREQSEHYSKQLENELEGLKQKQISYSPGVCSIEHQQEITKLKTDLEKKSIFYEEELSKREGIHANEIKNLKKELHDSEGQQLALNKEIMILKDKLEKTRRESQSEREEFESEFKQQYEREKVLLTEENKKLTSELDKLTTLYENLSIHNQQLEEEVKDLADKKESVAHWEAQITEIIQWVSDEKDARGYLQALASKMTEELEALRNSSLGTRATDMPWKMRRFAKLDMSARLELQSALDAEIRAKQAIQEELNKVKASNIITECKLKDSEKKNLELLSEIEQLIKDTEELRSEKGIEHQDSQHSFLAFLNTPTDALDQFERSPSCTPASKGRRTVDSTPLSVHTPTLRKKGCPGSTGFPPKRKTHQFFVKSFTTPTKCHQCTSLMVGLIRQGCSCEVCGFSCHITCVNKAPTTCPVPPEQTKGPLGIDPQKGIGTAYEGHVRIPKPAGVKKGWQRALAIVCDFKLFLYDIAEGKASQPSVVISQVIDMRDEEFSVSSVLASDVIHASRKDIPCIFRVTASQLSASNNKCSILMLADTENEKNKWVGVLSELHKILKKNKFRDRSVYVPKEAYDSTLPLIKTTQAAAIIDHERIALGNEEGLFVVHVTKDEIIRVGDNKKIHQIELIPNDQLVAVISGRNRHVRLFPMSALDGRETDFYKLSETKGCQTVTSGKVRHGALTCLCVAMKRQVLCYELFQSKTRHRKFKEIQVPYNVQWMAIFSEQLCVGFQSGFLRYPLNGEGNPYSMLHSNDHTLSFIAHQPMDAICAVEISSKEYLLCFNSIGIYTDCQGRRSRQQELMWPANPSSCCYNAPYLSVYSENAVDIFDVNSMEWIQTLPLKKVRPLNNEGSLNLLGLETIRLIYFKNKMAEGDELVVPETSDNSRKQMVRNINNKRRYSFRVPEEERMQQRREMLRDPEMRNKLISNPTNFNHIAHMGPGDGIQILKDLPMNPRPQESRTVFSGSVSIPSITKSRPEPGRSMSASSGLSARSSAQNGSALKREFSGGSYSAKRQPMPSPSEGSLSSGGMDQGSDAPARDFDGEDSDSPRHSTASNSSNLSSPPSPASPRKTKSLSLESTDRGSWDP
UniProt Q6P3R8, sequence (whole entry, looked up): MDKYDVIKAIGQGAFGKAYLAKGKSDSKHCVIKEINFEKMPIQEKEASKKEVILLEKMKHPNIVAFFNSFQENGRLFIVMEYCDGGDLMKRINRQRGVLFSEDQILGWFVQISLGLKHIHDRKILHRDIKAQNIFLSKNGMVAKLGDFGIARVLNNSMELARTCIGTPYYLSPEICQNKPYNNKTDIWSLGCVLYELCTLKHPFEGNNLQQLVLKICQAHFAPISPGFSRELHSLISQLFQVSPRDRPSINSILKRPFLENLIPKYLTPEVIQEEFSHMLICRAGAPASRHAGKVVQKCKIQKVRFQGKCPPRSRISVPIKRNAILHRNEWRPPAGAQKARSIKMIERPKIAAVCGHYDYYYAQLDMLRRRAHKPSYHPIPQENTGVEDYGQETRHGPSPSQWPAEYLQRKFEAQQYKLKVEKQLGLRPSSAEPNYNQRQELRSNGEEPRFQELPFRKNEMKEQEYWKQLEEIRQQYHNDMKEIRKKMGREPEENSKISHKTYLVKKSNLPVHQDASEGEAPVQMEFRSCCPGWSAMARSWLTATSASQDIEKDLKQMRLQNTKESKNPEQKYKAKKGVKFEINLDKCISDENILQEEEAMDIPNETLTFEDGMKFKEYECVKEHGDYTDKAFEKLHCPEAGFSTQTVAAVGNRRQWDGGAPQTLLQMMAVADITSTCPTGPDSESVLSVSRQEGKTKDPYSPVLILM
UniProt Q8N752, sequence (whole entry, looked up): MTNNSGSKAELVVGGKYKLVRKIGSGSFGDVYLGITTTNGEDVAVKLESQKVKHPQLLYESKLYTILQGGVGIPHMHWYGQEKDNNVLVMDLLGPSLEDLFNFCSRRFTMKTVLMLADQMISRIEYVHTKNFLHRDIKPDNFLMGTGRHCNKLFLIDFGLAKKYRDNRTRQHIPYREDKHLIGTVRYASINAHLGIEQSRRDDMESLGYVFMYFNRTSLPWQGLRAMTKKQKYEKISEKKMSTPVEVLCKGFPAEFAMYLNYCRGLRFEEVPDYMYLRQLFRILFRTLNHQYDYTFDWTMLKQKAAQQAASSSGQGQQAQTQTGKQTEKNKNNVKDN

Sample 1
Target: PAS domain-containing serine/threonine-protein kinase (PASK, Homo sapiens, UniProt Q96RG2)
UniProt Q96RG2, sequence (whole entry, looked up): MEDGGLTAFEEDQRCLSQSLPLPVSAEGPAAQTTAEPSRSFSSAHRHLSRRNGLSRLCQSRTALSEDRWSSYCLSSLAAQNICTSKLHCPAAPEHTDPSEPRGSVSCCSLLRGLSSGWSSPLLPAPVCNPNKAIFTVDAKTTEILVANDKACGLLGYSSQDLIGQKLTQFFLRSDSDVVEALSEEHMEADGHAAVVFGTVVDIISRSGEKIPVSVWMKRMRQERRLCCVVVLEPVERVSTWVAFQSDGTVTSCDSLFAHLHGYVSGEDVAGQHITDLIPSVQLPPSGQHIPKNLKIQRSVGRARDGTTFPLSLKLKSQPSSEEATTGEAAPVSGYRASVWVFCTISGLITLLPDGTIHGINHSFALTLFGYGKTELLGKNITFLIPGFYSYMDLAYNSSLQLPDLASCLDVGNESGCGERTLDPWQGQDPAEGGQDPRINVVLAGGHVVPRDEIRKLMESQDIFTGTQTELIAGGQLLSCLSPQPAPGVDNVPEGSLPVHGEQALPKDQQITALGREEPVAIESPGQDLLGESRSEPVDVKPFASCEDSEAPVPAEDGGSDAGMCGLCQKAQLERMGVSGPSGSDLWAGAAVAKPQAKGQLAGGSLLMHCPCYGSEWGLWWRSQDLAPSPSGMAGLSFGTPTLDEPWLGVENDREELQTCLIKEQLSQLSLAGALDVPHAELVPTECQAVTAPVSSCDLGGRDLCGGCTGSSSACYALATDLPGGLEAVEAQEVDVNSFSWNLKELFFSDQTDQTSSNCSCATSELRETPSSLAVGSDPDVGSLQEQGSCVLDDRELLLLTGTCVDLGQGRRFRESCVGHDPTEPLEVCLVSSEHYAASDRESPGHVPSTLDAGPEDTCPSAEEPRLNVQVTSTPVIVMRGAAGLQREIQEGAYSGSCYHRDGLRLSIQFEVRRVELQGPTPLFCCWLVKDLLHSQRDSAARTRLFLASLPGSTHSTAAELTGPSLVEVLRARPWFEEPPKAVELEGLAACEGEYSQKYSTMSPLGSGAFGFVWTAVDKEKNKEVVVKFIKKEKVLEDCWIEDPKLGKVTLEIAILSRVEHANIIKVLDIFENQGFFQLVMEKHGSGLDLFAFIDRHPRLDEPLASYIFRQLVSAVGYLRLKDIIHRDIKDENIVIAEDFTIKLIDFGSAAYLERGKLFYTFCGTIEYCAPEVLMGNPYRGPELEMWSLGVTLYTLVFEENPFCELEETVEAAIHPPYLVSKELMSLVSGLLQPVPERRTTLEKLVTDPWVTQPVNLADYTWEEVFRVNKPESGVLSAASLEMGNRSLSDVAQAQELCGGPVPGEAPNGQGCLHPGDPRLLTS
Effect on: enzyme activity
Mode: inhibitor
Concentration: 0.5 µM
Baseline: control
With `O=C1c2ccccc2-c2nc3nnnn3nc21` the remaining activity was 73.4%.
`O=C(O)/C=C/c1cc(Br)c(Br)c(Br)c1Br` has a remaining activity of 24.8%.
For `FC(F)(F)c1ccc(/C=C/c2nc(COc3ccc(CCCCn4ccnn4)cc3)co2)cc1`, the remaining activity was 104%.
For `COc1cc2c(N3CCN(C(=O)Nc4ccc(OC(C)C)cc4)CC3)ncnc2cc1OCCCN1CCCCC1`, the remaining activity was 105%.
With `O=Nc1c(-c2c(O)[nH]c3ccccc23)[nH]c2ccccc12` the remaining activity was 94.1%.
With `N#CC(c1ccnc(NCCc2cccnc2)n1)c1nc2ccccc2s1` (stereo not drawn) the remaining activity was 64.1%.
The remaining activity of `C[C@@H](N)[C@H]1CC[C@H](C(=O)Nc2ccncc2)CC1` is reported as 92.5%.
For `CCN(CC)CCCCN1c2ccccc2Oc2ccc(Cl)cc21`, the remaining activity was 76.6%.
For `O=C1NC(=O)/C(=C/c2ccc3c(c2)OC(F)(F)O3)S1`, the remaining activity was 78.2%.
`CNc1cc2c(Nc3cccc(Br)c3)ncnc2cn1` has a remaining activity of 86.9%.
The remaining activity of `O=c1c(-c2ccc(F)cc2)c(-c2ccncc2)[nH]n1-c1ccc(Cl)cc1` is reported as 93.6%.
With `Nc1nc(Nc2ccc(S(N)(=O)=O)cc2)nn1C(=S)Nc1c(F)cccc1F` the remaining activity was 91.8%.
For `NC(=O)c1cccc(-c2cc(Nc3ccc(OC(F)(F)F)cc3)ncn2)c1`, the remaining activity was 100%.
With `CCCCc1c(-c2ccc(O)cc2)[nH]c2nccnc12` the remaining activity was 99.5%.
The remaining activity of `c1cc(-c2cnn3cc(-c4ccc(OCCN5CCCCC5)cc4)cnc23)ccn1` is reported as 86.3%.
With `N#C/C(=C(/N)SC1C=CC=CC1)c1cccc(C(O)c2ccncc2)c1` (stereo not drawn) the remaining activity was 99.5%.
The remaining activity of `COc1cc2c(Nc3ccc(Br)cc3F)ncnc2cc1OCC1CCN(C)CC1` is reported as 102%.
With `CC(C)n1cnc2c(Nc3cccc(Cl)c3)nc(NCCO)nc21` the remaining activity was 92.7%.
`NC(=O)c1ccc(-c2nc(-c3ccc4c(c3)OCCO4)c(-c3ccccn3)[nH]2)cc1` has a remaining activity of 92.6%.
The remaining activity of `CC(C)(C)c1nc2c3cc[nH]c(=O)c3c3cc(F)ccc3c2[nH]1` is reported as 83.2%.
The remaining activity of `O=C(c1ccccc1)c1ccc(N2CCOCC2)cc1O` is reported as 94.3%.
`Clc1ccc(Nc2nnc(Cc3ccncc3)c3ccccc23)cc1` has a remaining activity of 101%.
The remaining activity of `CC(C)N(CCC(=O)c1ccc2ccccc2c1)Cc1ccccc1` is reported as 97.3%.

Sample 2
SMILES: Cc1cc(-n2nc(Cc3cc(F)cc(C(F)(F)F)c3)nc2C)ccc1C(N)=O
Concentration: 1 µM
It gave 100% for remaining binding (MAP3K15 (Homo sapiens, UniProt Q6ZN16); cell-free assay, competition with immobilised ligand).
For CSNK2A2 (Homo sapiens, UniProt P19784); cell-free assay, competition with immobilised ligand: remaining binding read 91%.
For HCK (Homo sapiens, UniProt P08631); cell-free assay, competition with immobilised ligand: remaining binding read 100%.
It gave 100% for remaining binding (BMPR1B (Homo sapiens, UniProt O00238); cell-free assay, competition with immobilised ligand).
Non-receptor tyrosine-protein kinase TYK2, JH1 (TYK2, Homo sapiens, UniProt P29597); cell-free assay, competition with immobilised ligand — remaining binding: 100%.
The remaining binding was 88% (CDK19 (Homo sapiens, UniProt Q9BWU1); competition binding).
CSNK1A1L (Homo sapiens, UniProt Q8N752); cell-free assay, competition with immobilised ligand — remaining binding: 100%.
It gave 77% for remaining binding (NEK5 (Homo sapiens, UniProt Q6P3R8); cell-free assay, competition with immobilised ligand).

Sample 3
Compound: CO[C@@H]1[C@H](N(C)C(=O)c2ccccc2)C[C@H]2O[C@]1(C)n1c3ccccc3c3c4c(c5c6ccccc6n2c5c31)C(=O)NC4
Effect on: enzyme activity
Mode: inhibitor
Concentration: 1 µM
The inhibition was 20% (NEK9 (Homo sapiens, UniProt Q8TD19)).
The inhibition was 0% (ACVRL1 (Homo sapiens, UniProt P37023)).
The inhibition was 3% (DDR2 (Homo sapiens, UniProt Q16832)).
CDC42BPA (Homo sapiens, UniProt Q5VT25) — inhibition: 0%.
For PKN1 (Homo sapiens, UniProt Q16512): inhibition read 95%.
It gave 18% for inhibition (TNIK (Homo sapiens, UniProt Q9UKE5)).
It gave 0% for inhibition (MAPKAPK2 (Homo sapiens, UniProt P49137)).
For ULK2 (Homo sapiens, UniProt Q8IYT8): inhibition read 3%.
It gave 84% for inhibition (BRSK2 (Homo sapiens, UniProt Q8IWQ3)).
CLK4 (Homo sapiens, UniProt Q9HAZ1) — inhibition: 68%.
MYLK (Homo sapiens, UniProt Q15746) — inhibition: 69%.
It gave 26% for inhibition (Tyrosine-protein kinase ABL1, phosphorylated (ABL1, Homo sapiens, UniProt P00519, E255K)).

Sample 4
Host: mouse
Matrix: microsomes or S9
Concentration: 2 µM
Time: 0.5 h
`O=C(Nc1ccc(-n2cnc3ccccc32)cc1)c1nc2ncccn2n1` has a remaining compound of 17.2%.
With `CCS(=O)(=O)Nc1cccc(-c2cc(=O)n(-c3ccc(F)c(Cl)c3)nc2C)c1` the remaining compound was 90%.
For `CS(=O)(=O)N[C@H]1CC[C@H](Nc2ncnc3[nH]cc(-c4cc(Cl)c(O)c(Cl)c4)c23)CC1`, the remaining compound was 87.1%.
With `CCOC(=O)CCCc1nc2cc(N)ccc2n1C` the remaining compound was 56.1%.
The remaining compound of `Cc1ccc(C(=O)C2=CN(c3ccc(N(C)C)cc3)c3ccccc3S2(=O)=O)c(C)c1` is reported as 2.73%.
For `O=C(Nc1ccccc1OCc1cscn1)c1cc(Cl)c[nH]1`, the remaining compound was 0.175%.
`NS(=O)(=O)c1ccc(Nc2ccc3cc(S(=O)(=O)N4CCCCC4)ccc3n2)cc1` has a remaining compound of 0.29%.
For `O=C(C1CCOCC1)N1CCCC(Cn2cnc3cccnc32)C1` (stereo not drawn), the remaining compound was 91.4%.
For `O=C(NC1Cc2ccccc2C1)NC1CCCn2ncnc21` (stereo not drawn), the remaining compound was 84.5%.
The remaining compound of `CS(=O)(=O)n1c(-c2ccccc2)c(C#Cc2ccccc2)c2ccccc21` is reported as over 99%.
The remaining compound of `Cc1ncc(-c2onc(C)c2C)c(-c2ccco2)n1` is reported as 10%.

A few entries again (sample 1):
For `CCN(CC)CCCCN1c2ccccc2Oc2ccc(Cl)cc21`, the remaining activity was 76.6%.
For `O=C1NC(=O)/C(=C/c2ccc3c(c2)OC(F)(F)O3)S1`, the remaining activity was 78.2%.
`CNc1cc2c(Nc3cccc(Br)c3)ncnc2cn1` has a remaining activity of 86.9%.
The remaining activity of `O=c1c(-c2ccc(F)cc2)c(-c2ccncc2)[nH]n1-c1ccc(Cl)cc1` is reported as 93.6%.
With `Nc1nc(Nc2ccc(S(N)(=O)=O)cc2)nn1C(=S)Nc1c(F)cccc1F` the remaining activity was 91.8%.
For `NC(=O)c1cccc(-c2cc(Nc3ccc(OC(F)(F)F)cc3)ncn2)c1`, the remaining activity was 100%.
With `CCCCc1c(-c2ccc(O)cc2)[nH]c2nccnc12` the remaining activity was 99.5%.
